Measurements of several laboratories.
Parts stem from different laboratories: compare values within a part only. Positions count from the first letter of the parent shown.

Set 1 — target: CCNE2, cyclin fold, Cln2 fusion (human); method: yeast growth competition, sequencing; medium: yeast; setting: weak parent motif; baseline: not given; reading: higher = stronger binding
Starting sequence: SAMHD1 docking peptide (human); ASKSRVQLFKDDP; partner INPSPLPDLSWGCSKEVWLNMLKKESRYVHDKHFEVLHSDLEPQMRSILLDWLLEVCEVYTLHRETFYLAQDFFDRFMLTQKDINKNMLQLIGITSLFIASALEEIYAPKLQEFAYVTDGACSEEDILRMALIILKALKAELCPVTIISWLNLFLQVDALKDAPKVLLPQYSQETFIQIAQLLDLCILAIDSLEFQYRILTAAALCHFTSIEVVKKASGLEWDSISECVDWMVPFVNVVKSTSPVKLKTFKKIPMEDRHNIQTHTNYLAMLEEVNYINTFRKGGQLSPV
| Variant | normalised enrichment score |
| --- | --- |
| ASKSRVQYFKDDP [L8Y] | 0.353 |
| ASQSRVQLFKDDP [K3Q] | -0.0629 |
| ASKSRVQLKKDDP [F9K] | 0.122 |
| ASKPRVQLFKDDP [S4P] | 0.0655 |
| ASKSRVQLNKDDP [F9N] | 0.0588 |
| ASKSRVYLFKDDP [Q7Y] | 0.328 |
| ASKSRVQLFRDDP [K10R] | 0.224 |
| ASKSRVELFKDDP [Q7E] | -0.198 |

Set 2 — method: protein-binding microarray; molecule type: double-stranded DNA, one strand shown; medium: in vitro; concentration: 0.8 µM; setting: whole 60-bp probe, no competitor; reading: higher = stronger binding; all sequences stand within: … GTCTTGATTCGCTTGACGCTGCTG
Target: Centromere-binding protein 1, full length, N-terminal tag (CBF1, Saccharomyces cerevisiae, UniProt P17106, residues 1-351)
Sequence of UniProt P17106 (whole entry, looked up): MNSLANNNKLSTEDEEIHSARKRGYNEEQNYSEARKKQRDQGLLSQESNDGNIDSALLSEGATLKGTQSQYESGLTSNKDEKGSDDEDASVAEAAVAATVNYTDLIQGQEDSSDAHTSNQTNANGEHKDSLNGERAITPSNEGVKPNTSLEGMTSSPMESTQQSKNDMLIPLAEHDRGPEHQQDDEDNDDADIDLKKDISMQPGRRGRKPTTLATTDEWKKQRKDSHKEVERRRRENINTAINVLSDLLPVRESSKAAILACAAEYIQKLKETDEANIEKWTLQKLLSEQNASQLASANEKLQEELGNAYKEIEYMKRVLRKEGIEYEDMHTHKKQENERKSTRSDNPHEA
| Sequence | fluorescence intensity [a.u.] |
| --- | --- |
| CCTAACTACTATAATCATCACATATAGCTTCGTACA | 500 |
| CTAATCCATTGGAATCACGCCCTAGTTCAGCAATTC | 667 |
| CTATTTTGCAAAATTCACACCTGAGTAATTCATTTC | 510 |
| CTAACGCTTCAATGACGCCTGATGTCAAATGCTTTC | 576 |
| CTAGATTTATCAGAAGACGTGACCTAGGGTTCTTTC | 1230 |
| GAATAATTTCCGCCCCACGTGCTGGAAATAACATAG | 9480 |
| GAAATAGCGTATAGTAGGCACGTGGTAGTCCACTAG | 5000 |

Set 3 — method: universal PBM; molecule type: double-stranded DNA, one strand shown; medium: in vitro; concentration: not given; reading: higher = stronger binding
Target: Sal-like protein 4, full length isoform B (SALL4, Homo sapiens, UniProt Q9UJQ4-2, residues 1-616)
Setting: 8-mer, flanks averaged, mean of replicates
| Sequence | E-score |
| --- | --- |
| ATAGATCC | 0.0425 |
| AGGAATTC | -0.113 |
| CGTCCCAC | -0.136 |
| AATCTGGT | -0.00893 |
| CATGTTCC | -0.0877 |
| CTGGTTAC | -0.182 |
| CCACCCAC | -0.0688 |
| CCTAATAA | 0.324 |
| GGCTGCAC | -0.276 |

Mixed results
| Molecule | target | test | test system | conditions | scale | endpoint | result |
| --- | --- | --- | --- | --- | --- | --- | --- |
| PhoQ, residues 284 288 289 292 302 303 WVSSAF | PhoP, residues 12 14 15 18 19 SGWQI (Escherichia coli, UniProt P23836) | Sort-seq, measured: YFP reporter | E. coli | PhoQ-PhoP variant library, together with: 10 µM Mg2+ | baseline: high Mg2+ state, higher = stronger signaling | fold induction | 6.86 |
